Experimental data from different studies.
Every numbered part comes from another study and shows a few of its results, in no order. “And” joins repeats or separate records; there may be more than shown.
Sequence of UniProt P28221 (whole entry, looked up): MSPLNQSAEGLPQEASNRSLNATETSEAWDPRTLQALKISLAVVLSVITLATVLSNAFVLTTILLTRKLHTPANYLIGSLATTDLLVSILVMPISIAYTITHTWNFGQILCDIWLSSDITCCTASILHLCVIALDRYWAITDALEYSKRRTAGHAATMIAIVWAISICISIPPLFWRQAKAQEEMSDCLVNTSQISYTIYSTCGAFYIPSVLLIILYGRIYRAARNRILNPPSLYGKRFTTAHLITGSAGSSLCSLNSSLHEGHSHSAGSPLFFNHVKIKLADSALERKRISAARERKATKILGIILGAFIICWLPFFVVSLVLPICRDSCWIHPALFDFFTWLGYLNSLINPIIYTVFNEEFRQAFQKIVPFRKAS

Study 1 — organism: Vesicular stomatitis virus; effect on: pseudovirus infection; concentration: concentration not given; notes: VSV-G control pseudotype; reference: vehicle; quantity: GFP-positive cells
CNC(=O)c1ccc(N2C(=S)N(c3ccc(C#N)c(C(F)(F)F)c3)C(=O)C2(C)C)cc1F: 141%
COc1cc2nccc(Oc3ccc(NC(=O)C4(C(=O)Nc5ccc(F)cc5)CC4)cc3)c2cc1OC.O=C(O)C[C@H](O)C(=O)O: 105%
Br.Cc1ccc(Sc2ccccc2N2CCNCC2)c(C)c1: 102%
CCC(CC)[C@H](NC(C)=O)[C@@H]1[C@H](O)[C@@H](C(=O)O)C[C@H]1NC(=N)N.O.O.O: 95.7%
CNC(=O)c1cnn(-c2nc(N)c3ncn([C@@H]4O[C@H](CO)[C@@H](O)[C@H]4O)c3n2)c1: 99.2%
CNC(=O)c1cc(Oc2ccc(NC(=O)Nc3ccc(Cl)c(C(F)(F)F)c3)c(F)c2)ccn1: 24.4%
CCOc1cc([C@@H](CS(C)(=O)=O)N2C(=O)c3cccc(NC(C)=O)c3C2=O)ccc1OC: 110%
CCC(=O)O[C@@H](O[P@](=O)(CCCCc1ccccc1)CC(=O)N1C[C@H](C2CCCCC2)C[C@H]1C(=O)[O-])C(C)C.[Na+]: 106%
CCCCCCCCc1ccc(CCC(N)(CO)CO)cc1.Cl: 83.7%
CC(C)(C)c1cc(C(C)(C)C)c(NC(=O)c2c[nH]c3ccccc3c2=O)cc1O: 108%
Cc1cc(Nc2ncc(Cl)c(Nc3ccccc3S(=O)(=O)C(C)C)n2)c(OC(C)C)cc1C1CCNCC1: 110%
Cc1ccc([C@@H]2O[C@H](CO)[C@@H](O)[C@H](O)[C@H]2O)cc1Cc1ccc(-c2ccc(F)cc2)s1: 117%
COc1cc2c(cc1Cc1cccc(Cl)c1F)c(=O)c(C(=O)O)cn2[C@H](CO)C(C)C: 104%
CN(C)C/C=C/C(=O)Nc1cc2c(Nc3ccc(F)c(Cl)c3)ncnc2cc1O[C@H]1CCOC1.O=C(O)/C=C\C(=O)O.O=C(O)/C=C\C(=O)O: 106%
CCCCCOc1ccc(-c2cc(-c3ccc(C(=O)N[C@H]4C[C@@H](O)[C@@H](O)NC(=O)[C@@H]5[C@@H](O)[C@@H](C)CN5C(=O)[C@H]([C@H](O)CC(N)=O)NC(=O)[C@H]([C@H](O)[C@@H](O)c5ccc(O)c(OS(=O)(=O)[O-])c5)NC(=O)[C@@H]5C[C@@H](O)CN5C(=O)[C@H]([C@@H](C)O)NC4=O)cc3)no2)cc1.[Na+]: 88.9%
C/C=C1\NC(=O)[C@H]2CSSCC/C=C/[C@H](CC(=O)N[C@H](C(C)C)C(=O)N2)OC(=O)[C@H](C(C)C)NC1=O: 19.4%
N=C(N)NCCN1CCCCCCC1.O=S(=O)(O)O: 103%
COc1cc2c(cc1OC)CC(=O)N(CCCN(C)C[C@H]1Cc3cc(OC)c(OC)cc31)CC2.Cl: 97.5%
N#CC[C@H](C1CCCC1)n1cc(-c2ncnc3[nH]ccc23)cn1: 153%

Study 2 — cell line: HEK-293T-ACE2-TMPRSS2; technique: cell count; concentration: 10 µM; quantity: viability
OC[C@@H]1CN(C2CCSCC2)C[C@H]1c1nc(-c2cccnc2)no1: 93%
Cc1cc2c(cc1O)NC(=O)CC2c1ccc(Oc2ccccc2)nc1 (stereo not shown): 105%
COc1ccc(-c2nc(CN(Cc3c(C)nn(C)c3C)C3CC3)c(C)o2)c(C)c1C: 93%
O=C1/C(=C\c2csnn2)CN(C2CCCCC2)C/C1=C\c1csnn1: 65%
CN(C)C(=O)N1CCC(C(=O)N2CCOC(Cc3cccc4ccccc34)C2)CC1 (stereo not shown): 108%
COc1ccccc1C1CCCN1C(=O)CCCn1nnnc1CN1CCOCC1 (stereo not shown): 99%
CCc1ccccc1-c1ccc(NC(C)=O)c(OC)c1: 81%
C=CCN1CC(C(=O)NCc2ccc(S(=O)(=O)N(C)C)cc2)CC1=O (stereo not shown): 65%
CC(C)(O)C#Cc1ccc(-c2nccn2Cc2ccc(F)cc2)cc1: 66%
COCCCN1CCC(NC(=O)c2cc(Cl)c(N)c3c2OCC3)CC1: 85%
O=C1NCCN1c1cccc(C(=O)N2CCc3c([nH]c4ccccc34)C2C2CCCCC2)c1 (stereo not shown): 67%
COc1ccc(NC(=O)CC(=O)N2CCC(Oc3ccc(C)cc3)CC2)c(OC)c1: 88%
O=C(Nc1ccccc1)c1nc(S(=O)(=O)Cc2ccc(F)cc2)ncc1Cl: 89%
COc1ccc(Cl)cc1NC(=O)c1cnc(N2CCN(c3ncccn3)CC2)c2ccccc12: 77%
O=C(CN1CCN(C(=O)c2cccs2)CC1)Nc1ccc2c(c1)CCC2: 88%
CCCC(=O)Nc1nc2ccc(NC(=O)C3(c4ccccc4)CCCC3)cc2s1: 66%
Cc1ccc(C)c(OCC(=O)NCc2noc(Cc3cccs3)n2)c1C: 86%
Cc1nc2c(c(=O)n1C)CCN(Cc1ccc(Sc3nncn3C)o1)CC2: 66%
CC(c1ccc(-c2ccc3sc(N)nc3c2)cc1)N1CCOCC1 (stereo not shown): 104%
CCc1ccccc1NS(=O)(=O)c1ccc(-n2ncc(Cl)c(Cl)c2=O)cc1: 83%
CCCS(=O)(=O)N1C[C@@H](COC)[C@H](c2nc(C)no2)C1: 101%
CC(C)N(Cc1nccn1C)C(=O)C1CCCCO1 (stereo not shown): 67%
CC(C)Oc1cccc(-c2csc(C(N)=O)c2)c1: 65%
O=S(=O)(c1ccc(SCc2cc3c(cc2Br)OCO3)nc1)N1CCCC1: 91%
Nc1nc(N)c2nc(-c3ccccc3)c(N)nc2n1: 70%

Mixed results
CRK2: Cyclin-dependent kinase 2 homolog (CRK2, Plasmodium falciparum, UniProt P61075)
Sequence of UniProt P61075 (whole entry, looked up): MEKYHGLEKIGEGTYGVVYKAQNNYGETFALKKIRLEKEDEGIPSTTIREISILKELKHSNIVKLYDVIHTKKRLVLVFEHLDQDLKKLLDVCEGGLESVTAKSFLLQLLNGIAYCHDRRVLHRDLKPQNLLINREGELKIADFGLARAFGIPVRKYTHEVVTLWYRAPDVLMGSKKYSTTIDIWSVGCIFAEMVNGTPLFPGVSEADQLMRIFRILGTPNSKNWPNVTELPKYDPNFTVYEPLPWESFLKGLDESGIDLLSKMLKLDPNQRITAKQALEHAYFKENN
CCCCN(CCCC)C(=O)CN1C[C@@H](c2cc(OC)c3c(c2)OCO3)[C@H](C(=O)O)[C@H]1CC(C)(C)CCC  remaining binding (CRK2; cell-free assay, competition with immobilised ligand; 1 µM): 95.9%
C/C(NN1CCCCCC1)=C1\C(=O)N(c2ccccc2C)C(=O)N=C1O  remaining compound (human, microsomes or S9; 2 µM, 0.5 h): 17.4%
CC(C)(O)c1cncc(-c2nc3ccc(F)cc3n2C2CC2)c1  remaining binding (CRK2; cell-free assay, competition with immobilised ligand; 1 µM): 100%
O=C(COc1ccccc1P(=O)(O)O)NCC(F)(F)c1ccc(F)c(F)c1  dead β-cells (human islet β-cells; β-cell death; human; 10 µM, 24 h, with: 20 mM glucose + 500 µM palmitate; reference: GFP+ cells): 6% and 8.31% and 7.27% and 17.2%
FC(F)(F)c1ccc2c(c1)nc(-c1cccnc1)n2C1CC1  remaining binding (CRK2; cell-free assay, competition with immobilised ligand; 1 µM): 100%
O=C(COc1ccccc1P(=O)(O)O)NCC(F)(F)c1cccc(F)c1  dead β-cells (human islet β-cells; β-cell death; human; 10 µM, 24 h, with: 20 mM glucose + 500 µM palmitate; reference: GFP+ cells): 11.8% and 5.78% and 4.07% and 11.5%
N#CC1(c2ccccn2)CCN(Cc2cc(C(=O)O)c(=O)n3ccccc23)CC1  inhibition (HTR1D (Homo sapiens, UniProt P28221); cell-free assay; 10 µM): -4.55%
Cc1ccc(C2CC(c3c(O)[nH]c(=O)n(C)c3=O)=NN2)s1 (stereo not shown)  remaining compound (human, microsomes or S9; 2 µM, 0.5 h): 24.2%

Repeated from above (study 2):
CCCC(=O)Nc1nc2ccc(NC(=O)C3(c4ccccc4)CCCC3)cc2s1: 66%
Cc1ccc(C)c(OCC(=O)NCc2noc(Cc3cccs3)n2)c1C: 86%
Cc1nc2c(c(=O)n1C)CCN(Cc1ccc(Sc3nncn3C)o1)CC2: 66%
CC(c1ccc(-c2ccc3sc(N)nc3c2)cc1)N1CCOCC1 (stereo not shown): 104%
CCc1ccccc1NS(=O)(=O)c1ccc(-n2ncc(Cl)c(Cl)c2=O)cc1: 83%
CCCS(=O)(=O)N1C[C@@H](COC)[C@H](c2nc(C)no2)C1: 101%
CC(C)N(Cc1nccn1C)C(=O)C1CCCCO1 (stereo not shown): 67%
